Published values collected from several papers.
Lines come from different studies, so protocols differ. Values joined by “and” are separate records of one study, mostly repeats; a detail may differ.

SMILES = CCCCCCCCCCCC(=O)C(C)C(=O)N1CCC[C@H]1C(=O)NC(C)(C)C(=O)NC(C)(C)C(=O)NC(C)(C)C(=O)N[C@](C)(CC)C(=O)NCCC(=O)N[C@@H](C)C(=O)N[C@](C)(CC)C(=O)N[C@@H](C)C(=O)N[C@@H](CC(C)C)C(=O)N[C@](C)(CC)C(=O)NCCC(=O)N[C@@H](C)C(=O)N[C@](C)(CC)C(=O)NCCC(=O)N[C@@H](C)C(=O)NC(C)(C)C(=O)NC(C)(C)C(=O)NC(C)(C)C(=O)N[C@@H](C)C(=O)N[C@@H](CC(=O)O)C(=O)O (stereo partly shown); assay = LC-MS; test system = 50% pooled human serum; conditions = 40 µM, 10 min, pH 7.5, 37 °C; how to read = reference: 0 h; quantity = remaining intact peptide; result = 65.4% and 71.9% and 75.3%
SMILES = C#Cc1c(F)ccc2cc(O)cc(-c3ncc4c(N5CC6CCC(C5)N6C(=O)OC(CCC)OC(=O)CCC)nc(OC[C@@]56CCCN5C[C@H](F)C6)nc4c3F)c12 (stereo partly shown); test system = simulated gastric fluid; conditions = 1 µM, 30 min, 37 °C; quantity = remaining prodrug; result = 93.7%
SMILES = CCN(CC)CCOc1ccc(-c2nnn(Cc3ccc(OC)cc3)c2N)cc1; test system = dog plasma; conditions = 120 min; quantity = remaining compound; result = 105%
SMILES = C=CCN1CCC23c4c5ccc(OC(=O)c6ccccc6)c4OC2C(=O)CCC3(O)C1C5 (stereo not shown); test system = rat plasma; conditions = 0.5 h, no inhibitor; quantity = remaining compound; result = 0%
SMILES = C[C@H](NC(=O)CNC(=O)[C@@H]1CCCN1C(=O)[C@H](CO)NC(=O)CNC(=O)[C@H](CO)NC(=O)[C@H](C)NC(=O)[C@H](CC(N)=O)NC(=O)[C@H](C)NC(=O)[C@H](CO)NC(=O)[C@H](C)NC(=O)[C@H](CO)NC(=O)[C@@H]1CCCN1C(=O)[C@H](Cc1ccccc1)NC(=O)[C@H](C)NC(=O)[C@H](CO)NC(=O)[C@@H]1CCCN1C(=O)[C@H](Cc1ccccc1)NC(=O)[C@@H](NC(=O)[C@H](CC(=O)O)NC(=O)[C@@H](N)CO)[C@@H](C)O)C(=O)N[C@@H](CCCNC(=N)N)C(=O)N[C@@H](CO)C(=O)O; test system = CHO-K1 culture medium; conditions = 40 min; quantity = remaining peptide; result = 1.02%
SMILES = Cc1nnc(-c2ccc(CC(=O)NCCCC[C@H](NC(=O)c3ccc(OCc4ccc(B(O)O)cc4)c(-c4nc5ccccc5c(=O)[nH]4)c3)C(=O)NCC(=O)NCC(=O)NCC(=O)N[C@@H](Cc3ccccc3)C(=O)N[C@@H](Cc3ccccc3)C(=O)O)cc2)nn1; assay = UPLC-MS/MS; test system = human serum; conditions = 100 µM, 4 h, 37 °C; quantity = remaining compound; result = 71.7% and 72.7%
SMILES = C=CCN1CCC23c4c5ccc(OC(=O)c6ccc(NC(=O)OC(C)(C)C)cc6)c4OC2C(=O)CCC3(O)C1C5 (stereo not shown); test system = rat plasma; conditions = 1 h, added: digitonin 100 µM; quantity = remaining compound; result = 0%
SMILES = C#Cc1c(F)ccc2cc(O)cc(-c3ncc4c(N5CC6CCC(C5)N6C(=O)OC(C)OC(=O)COCCOC)nc(OC[C@@]56CCCN5C[C@H](F)C6)nc4c3F)c12 (stereo partly shown); test system = simulated gastric fluid; conditions = 1 µM, 30 min, 37 °C; quantity = remaining prodrug; result = 104%
SMILES = CSCC[C@@H]1NC(=O)[C@H](C(C)C)NC(=O)[C@H](CCCNC(=N)N)NC(=O)[C@@H]2CCCN2C(=O)CNC(=O)[C@@H](NC(=O)CNC(=O)[C@H](CO)NC(=O)CNC(=O)[C@H](CO)NC(=S)Nc2ccc(C[C@H]3CN(CC(=O)O)CCN(CC(=O)O)CCN3CC(=O)O)cc2)CSSC[C@@H](C(N)=O)NC(=O)[C@@H]2CCCN2C(=O)CNC(=O)[C@H](CCC(=O)O)NC(=O)[C@H](CC(=O)O)NC(=O)[C@H](CC(=O)O)NC(=O)CNC(=O)[C@H](CC(C)C)NC(=O)[C@H](Cc2c[nH]cn2)NC(=O)[C@H](CC(C)C)NC(=O)CNC(=O)[C@H](Cc2c[nH]cn2)NC1=O [copper-64 labelled]; assay = SE-HPLC; test system = rat serum; conditions = 1.2 µM, 1 h, 37 °C; quantity = remaining intact; result = > 90%
SMILES = CC[C@H](C)[C@H](NC(=O)[C@@H](NC(=O)[C@@H](NC(=O)[C@@H](NC(=O)[C@@H](N)CCCCN)C(C)C)C(C)C)C(C)C)C(=O)N[C@H](C(N)=O)[C@@H](C)O; assay = LC-MS; test system = pronase digest; conditions = 200 µM, 10 min, pH 7.5, 37 °C, added: pronase 2.5 µg/mL; quantity = remaining intact peptide; result = 91%

A few entries again:
SMILES = C[C@H](NC(=O)CNC(=O)[C@@H]1CCCN1C(=O)[C@H](CO)NC(=O)CNC(=O)[C@H](CO)NC(=O)[C@H](C)NC(=O)[C@H](CC(N)=O)NC(=O)[C@H](C)NC(=O)[C@H](CO)NC(=O)[C@H](C)NC(=O)[C@H](CO)NC(=O)[C@@H]1CCCN1C(=O)[C@H](Cc1ccccc1)NC(=O)[C@H](C)NC(=O)[C@H](CO)NC(=O)[C@@H]1CCCN1C(=O)[C@H](Cc1ccccc1)NC(=O)[C@@H](NC(=O)[C@H](CC(=O)O)NC(=O)[C@@H](N)CO)[C@@H](C)O)C(=O)N[C@@H](CCCNC(=N)N)C(=O)N[C@@H](CO)C(=O)O; test system = CHO-K1 culture medium; conditions = 40 min; quantity = remaining peptide; result = 1.02%
